Measured values gathered from unrelated publications.
Parts stem from different laboratories: compare values within a part only. Changes are numbered by the printed parent chain.

Block 1
Target: CCNF, cyclin fold, Cln2 fusion (human)
Method: yeast growth competition, sequencing
Sample: yeast
Setting: strong parent motif
Relative to: not given
Reading: higher = stronger binding
Parent: CDKN1A docking peptide (human); SKACRRLFGPVDS
Change | normalised enrichment score
SNACRRLFGPVDS [K2N] | 7.94
SKACVRLFGPVDS [R5V] | 0.958
SSACRRLFGPVDS [K2S] | 7.74
SKACRRLFGPRDS [V11R] | 7.17
SKACRRLFGEVDS [P10E] | 7.42
SKACRRLFGDVDS [P10D] | 7.29
SKACYRLFGPVDS [R5Y] | 0.497
SKVCRRLFGPVDS [A3V] | 8.5
SKACRRLFGPVHS [D12H] | 7.43
SKACRRTFGPVDS [L7T] | 0.66

Block 2
Target: RING finger protein unkempt homolog, zinc fingers 1-6, GST-SBP tag (UNK, Homo sapiens, UniProt Q9C0B0, residues 30-357)
Method: RNA Bind-n-Seq
Molecule type: RNA
Sample: in vitro
Tested at: not given
Setting: RNA with constant flanks, human-mouse chimeric sites, ends assumed
Relative to: input RNA pool
Reading: higher = stronger binding
Target sequence (chain): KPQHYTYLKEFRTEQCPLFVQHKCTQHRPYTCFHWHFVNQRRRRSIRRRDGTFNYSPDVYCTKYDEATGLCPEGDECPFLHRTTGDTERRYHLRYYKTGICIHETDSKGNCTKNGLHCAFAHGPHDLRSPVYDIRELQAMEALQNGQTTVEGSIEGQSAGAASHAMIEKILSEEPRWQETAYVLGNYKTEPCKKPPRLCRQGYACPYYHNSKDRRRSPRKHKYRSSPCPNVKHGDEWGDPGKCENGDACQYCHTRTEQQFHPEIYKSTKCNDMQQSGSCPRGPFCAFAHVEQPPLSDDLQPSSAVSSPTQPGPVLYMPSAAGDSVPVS
Strand | bound/input enrichment
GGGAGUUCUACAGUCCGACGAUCUCUGGUCACACUCGUGUGUAUGGUGUUUGCUUUGUGGACACUUCACUGGGCAAGUUUUUCAUCGGCCAGUUUUCAGAUGACCGCCACUGUUCCAGAUUUAGGACUCUAGUGGCUCACUAUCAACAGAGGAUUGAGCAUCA | 0.145 ratio
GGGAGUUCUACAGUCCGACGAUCGUUCGACUCUGGGAUCAUGCCACAAUGACAGAAGUGAAAUCUCUGAAUUUUAAUAUGUCUGUUAGCAGCAUGGAGUAUAUUCCUGAAGGAGAGAUUUUGGUUAUAACUUAUGGACGAUCUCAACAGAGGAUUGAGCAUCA | 0.266 ratio
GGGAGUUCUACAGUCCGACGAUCGUGUCCUUUCAACUUAAUAAAUCACUGAGGCAUCUCUACUAUUCUGUGAGCAUCAGGACUGUAGCGCUGUGUCACCACAUGAGAGUUCAGAAGCAGCCUUUCUGUGGAGGGUGGGAAUGACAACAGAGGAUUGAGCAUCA | 0.31 ratio
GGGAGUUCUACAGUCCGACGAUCCUGGGUAUCAUCUCUCGUGCUGUUAGACACCUGUUCAAGAGUAUUGAAGAAAAAAAAACCUCAGCGAUUAAAAACGGGCUGCCCCCUCCUGAAUUCAAAGUGAAUGCCCAGUUCCUAGAGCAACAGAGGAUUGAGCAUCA | 0.617 ratio
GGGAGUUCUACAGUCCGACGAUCCUCAGAGACGUGGCAUAUCAGUAUGUGAAAAAGGGGGCUCGUAUAUUUGUGGAAGGGAAAGUGGACUAUGGUGAAUACAUGGAUAAAAACAAUGUGAGGCGGCAAGCAACAACAAUCAUACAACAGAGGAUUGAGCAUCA | 0.336 ratio
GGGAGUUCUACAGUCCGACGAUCAUCAAAUACUUUGGGGAUAUUAUUAGCGUGGGACAGAGACUGUUGCAAGGAGCUCGGAUCUUAGGGAUUCCAGUUAUCAUAACGGAACAAUACCCCAAAGGUCUUGGCAGCACCGUUCAACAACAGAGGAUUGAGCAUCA | 0.268 ratio
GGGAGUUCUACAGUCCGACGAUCCAGUCCCCGUGUCCCAGUGCAGGACGAUGUGAACAAAAACUCAAAGCGGACCCUCUAUUGUAGUUCUUUUUUUAAAUAAUGUGCUAUUAUUGUUUGUAAAAAAGGAAUUUUUUUUAAAGACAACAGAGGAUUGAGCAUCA | 0.701 ratio
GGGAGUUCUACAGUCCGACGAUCUAAGUUAUUUUGUACAGCUUUGUAAAUUCUUAACAUUAAUUUGUAAACAUGUUUAUUUUUUUUAGAUAAUUUGGUUCAUUAAGUACAUAGCUAAGGUAAUGAACAUCUUUUUCAGUAAUUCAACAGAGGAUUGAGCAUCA | 7.57 ratio
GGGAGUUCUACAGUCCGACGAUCUGACAAGGGCACUGCAGGGCCAUGCCUUUCCUUGACAUACAGAAAAAGCUGGGCAUCAGCCUGGACCGGCACUUUAUGUUCCUAAGCGCAGAACAGCCCUACAAGAUCGCCGCUCGGUGCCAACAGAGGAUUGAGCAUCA | 0.0776 ratio

Further values, each from its own experiment
Substance | tested on | assay | system | setting | how to read | endpoint | value
KTN1 (Homo sapiens, UniProt Q86UP2) | PLEKHG1 (Homo sapiens, UniProt Q9ULL1) | cross-linking MS | cell fractions | with: DSSO | – | cross-linked residues | K477 to S105
PhoQ, residues 284 288 289 292 302 303 AAQSYM | PhoP, residues 12 14 15 18 19 LHHSG (Escherichia coli, UniProt P23836) | Sort-seq, measured: YFP reporter | E. coli | PhoQ-PhoP variant library, with: 10 µM Mg2+ | relative to: high Mg2+ state, higher = stronger signaling | fold induction | 11.6
CCT8 (Homo sapiens, UniProt P50990) | CCT7 (Homo sapiens, UniProt Q99832) | cross-linking MS | cell fractions | with: DSSO | – | cross-linked residues | K62 to K77
CALR (Homo sapiens, UniProt P27797) | ZKSCAN2 (Homo sapiens, UniProt Q63HK3) | cross-linking MS | cell fractions | with: DSSO | – | cross-linked residues | K55 to K323
WDR36 (Homo sapiens, UniProt Q8NI36) | UTP18 (Homo sapiens, UniProt Q9Y5J1) | cross-linking MS | cell fractions | with: DSSO | – | cross-linked residues | K179 to K172

Repeated from above (block 1):
Change | normalised enrichment score
SKACRRLFGPVHS [D12H] | 7.43
SSACRRLFGPVDS [K2S] | 7.74
SNACRRLFGPVDS [K2N] | 7.94
